# Results gathered from unrelated publications.
# Every numbered part comes from another study and shows a few of its results, in no order.
# UniProt Q9NYY3, sequence (whole entry, looked up): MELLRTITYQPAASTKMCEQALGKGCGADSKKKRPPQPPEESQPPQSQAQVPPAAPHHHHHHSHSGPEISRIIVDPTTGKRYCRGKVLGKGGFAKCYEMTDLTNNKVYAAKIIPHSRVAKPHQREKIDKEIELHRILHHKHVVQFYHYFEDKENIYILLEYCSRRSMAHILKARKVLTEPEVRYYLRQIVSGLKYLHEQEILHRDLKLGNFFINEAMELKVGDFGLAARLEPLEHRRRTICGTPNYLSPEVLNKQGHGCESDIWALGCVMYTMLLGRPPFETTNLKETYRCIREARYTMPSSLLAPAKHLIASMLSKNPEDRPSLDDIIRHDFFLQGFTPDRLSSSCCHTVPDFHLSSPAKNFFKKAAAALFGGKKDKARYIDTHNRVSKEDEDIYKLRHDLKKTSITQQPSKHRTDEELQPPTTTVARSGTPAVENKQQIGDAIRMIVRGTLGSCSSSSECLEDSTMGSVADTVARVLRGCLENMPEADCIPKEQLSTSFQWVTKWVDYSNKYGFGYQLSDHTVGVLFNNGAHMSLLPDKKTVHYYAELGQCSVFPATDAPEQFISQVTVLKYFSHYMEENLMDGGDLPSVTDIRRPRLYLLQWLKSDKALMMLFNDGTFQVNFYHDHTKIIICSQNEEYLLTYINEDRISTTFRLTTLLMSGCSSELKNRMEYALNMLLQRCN
# UniProt O14733, sequence (whole entry, looked up): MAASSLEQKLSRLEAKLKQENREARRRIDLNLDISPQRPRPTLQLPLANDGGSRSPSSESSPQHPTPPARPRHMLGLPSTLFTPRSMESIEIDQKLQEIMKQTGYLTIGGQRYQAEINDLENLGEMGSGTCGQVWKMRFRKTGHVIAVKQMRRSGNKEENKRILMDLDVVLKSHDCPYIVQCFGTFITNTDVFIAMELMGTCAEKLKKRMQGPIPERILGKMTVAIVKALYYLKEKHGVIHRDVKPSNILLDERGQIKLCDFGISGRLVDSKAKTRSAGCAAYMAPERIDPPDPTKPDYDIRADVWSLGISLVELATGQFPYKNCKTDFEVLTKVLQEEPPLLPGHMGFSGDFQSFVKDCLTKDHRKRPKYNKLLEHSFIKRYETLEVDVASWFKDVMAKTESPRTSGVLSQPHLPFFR
# UniProt P11362, sequence (whole entry, looked up): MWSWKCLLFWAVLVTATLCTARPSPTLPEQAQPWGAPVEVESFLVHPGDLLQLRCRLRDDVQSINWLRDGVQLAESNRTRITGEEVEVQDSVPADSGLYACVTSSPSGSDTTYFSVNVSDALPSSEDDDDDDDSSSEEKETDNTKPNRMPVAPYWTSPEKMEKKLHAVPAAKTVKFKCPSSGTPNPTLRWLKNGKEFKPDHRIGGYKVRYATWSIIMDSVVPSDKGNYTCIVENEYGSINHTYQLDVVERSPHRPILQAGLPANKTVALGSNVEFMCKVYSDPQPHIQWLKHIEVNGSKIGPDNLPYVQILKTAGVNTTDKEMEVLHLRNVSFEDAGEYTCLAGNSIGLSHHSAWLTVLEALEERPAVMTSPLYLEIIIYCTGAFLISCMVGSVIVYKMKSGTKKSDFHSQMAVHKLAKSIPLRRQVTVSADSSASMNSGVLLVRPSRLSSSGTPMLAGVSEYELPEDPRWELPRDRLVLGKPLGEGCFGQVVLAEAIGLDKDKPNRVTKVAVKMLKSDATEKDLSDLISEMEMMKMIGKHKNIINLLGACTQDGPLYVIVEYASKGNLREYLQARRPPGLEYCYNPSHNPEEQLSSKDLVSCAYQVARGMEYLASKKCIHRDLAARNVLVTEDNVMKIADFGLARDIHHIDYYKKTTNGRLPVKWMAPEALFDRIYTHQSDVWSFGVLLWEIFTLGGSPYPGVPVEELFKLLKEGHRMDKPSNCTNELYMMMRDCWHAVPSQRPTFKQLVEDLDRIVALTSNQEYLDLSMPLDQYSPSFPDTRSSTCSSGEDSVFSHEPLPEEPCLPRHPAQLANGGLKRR
# UniProt Q9Y6M4, sequence (whole entry, looked up): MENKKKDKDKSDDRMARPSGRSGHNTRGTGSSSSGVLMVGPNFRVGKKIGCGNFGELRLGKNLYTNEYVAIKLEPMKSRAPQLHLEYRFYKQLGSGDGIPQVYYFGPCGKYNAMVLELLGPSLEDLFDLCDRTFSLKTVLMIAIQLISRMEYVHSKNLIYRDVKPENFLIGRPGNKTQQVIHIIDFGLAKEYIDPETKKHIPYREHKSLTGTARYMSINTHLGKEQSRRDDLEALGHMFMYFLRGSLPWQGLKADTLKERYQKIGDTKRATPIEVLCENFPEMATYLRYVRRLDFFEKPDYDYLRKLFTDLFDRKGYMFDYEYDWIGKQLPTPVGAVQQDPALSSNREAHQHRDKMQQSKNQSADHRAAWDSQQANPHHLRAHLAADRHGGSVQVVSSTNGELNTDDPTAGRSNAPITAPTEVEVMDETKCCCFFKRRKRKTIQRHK
# UniProt O00750, sequence (whole entry, looked up): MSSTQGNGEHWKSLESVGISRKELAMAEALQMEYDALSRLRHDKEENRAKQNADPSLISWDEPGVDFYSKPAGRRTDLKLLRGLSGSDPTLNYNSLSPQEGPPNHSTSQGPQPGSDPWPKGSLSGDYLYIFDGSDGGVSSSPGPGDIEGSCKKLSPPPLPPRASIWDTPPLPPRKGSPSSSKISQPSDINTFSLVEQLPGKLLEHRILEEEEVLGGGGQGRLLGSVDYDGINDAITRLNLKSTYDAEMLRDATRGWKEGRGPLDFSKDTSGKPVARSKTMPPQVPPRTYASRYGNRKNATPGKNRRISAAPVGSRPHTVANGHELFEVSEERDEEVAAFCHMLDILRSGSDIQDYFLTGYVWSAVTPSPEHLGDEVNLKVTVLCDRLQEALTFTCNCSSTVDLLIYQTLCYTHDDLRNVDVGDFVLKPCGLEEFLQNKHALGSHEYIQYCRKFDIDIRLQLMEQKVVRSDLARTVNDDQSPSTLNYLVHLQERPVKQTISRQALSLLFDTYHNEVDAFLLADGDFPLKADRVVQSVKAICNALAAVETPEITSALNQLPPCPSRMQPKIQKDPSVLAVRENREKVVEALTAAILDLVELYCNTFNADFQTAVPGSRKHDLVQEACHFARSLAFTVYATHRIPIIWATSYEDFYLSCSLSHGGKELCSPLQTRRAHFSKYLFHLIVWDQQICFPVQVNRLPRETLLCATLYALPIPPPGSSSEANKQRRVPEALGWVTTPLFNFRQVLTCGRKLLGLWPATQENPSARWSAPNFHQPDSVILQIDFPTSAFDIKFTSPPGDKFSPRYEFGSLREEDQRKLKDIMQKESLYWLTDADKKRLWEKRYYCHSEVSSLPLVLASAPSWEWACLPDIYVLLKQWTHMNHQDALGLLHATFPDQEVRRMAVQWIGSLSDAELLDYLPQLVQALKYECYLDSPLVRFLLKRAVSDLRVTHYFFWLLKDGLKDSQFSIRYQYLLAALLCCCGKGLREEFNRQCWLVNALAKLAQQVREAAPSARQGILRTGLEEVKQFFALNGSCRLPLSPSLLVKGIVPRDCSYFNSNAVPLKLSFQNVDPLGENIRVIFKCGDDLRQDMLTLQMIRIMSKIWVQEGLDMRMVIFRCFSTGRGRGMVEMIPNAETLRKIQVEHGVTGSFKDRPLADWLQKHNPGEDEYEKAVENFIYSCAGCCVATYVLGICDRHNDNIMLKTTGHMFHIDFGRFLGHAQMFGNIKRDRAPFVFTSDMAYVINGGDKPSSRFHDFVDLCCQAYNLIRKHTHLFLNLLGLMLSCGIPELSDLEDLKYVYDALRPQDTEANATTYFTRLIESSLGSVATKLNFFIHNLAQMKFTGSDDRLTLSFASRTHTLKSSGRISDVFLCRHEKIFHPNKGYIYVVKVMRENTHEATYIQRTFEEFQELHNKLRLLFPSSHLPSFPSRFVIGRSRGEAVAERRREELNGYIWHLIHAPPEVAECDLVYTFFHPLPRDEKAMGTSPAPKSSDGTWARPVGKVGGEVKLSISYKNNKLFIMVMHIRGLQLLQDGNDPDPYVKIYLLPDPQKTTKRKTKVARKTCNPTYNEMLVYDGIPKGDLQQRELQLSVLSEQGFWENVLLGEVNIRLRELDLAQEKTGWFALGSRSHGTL
# UniProt Q13188, sequence (whole entry, looked up): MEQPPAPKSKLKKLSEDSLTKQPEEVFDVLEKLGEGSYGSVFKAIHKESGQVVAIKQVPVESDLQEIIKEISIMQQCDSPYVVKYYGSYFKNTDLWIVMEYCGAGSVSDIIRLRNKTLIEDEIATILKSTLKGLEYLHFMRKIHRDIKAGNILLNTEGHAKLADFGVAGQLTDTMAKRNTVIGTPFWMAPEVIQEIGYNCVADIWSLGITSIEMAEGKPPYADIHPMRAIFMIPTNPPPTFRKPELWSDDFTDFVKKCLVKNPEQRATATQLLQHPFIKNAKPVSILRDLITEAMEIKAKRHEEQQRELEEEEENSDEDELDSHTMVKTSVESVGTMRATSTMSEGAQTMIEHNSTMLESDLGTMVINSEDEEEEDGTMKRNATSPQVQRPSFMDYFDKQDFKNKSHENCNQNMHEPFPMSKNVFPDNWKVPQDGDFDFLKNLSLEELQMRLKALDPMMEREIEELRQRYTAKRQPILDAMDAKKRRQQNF
# UniProt P07947, sequence (whole entry, looked up): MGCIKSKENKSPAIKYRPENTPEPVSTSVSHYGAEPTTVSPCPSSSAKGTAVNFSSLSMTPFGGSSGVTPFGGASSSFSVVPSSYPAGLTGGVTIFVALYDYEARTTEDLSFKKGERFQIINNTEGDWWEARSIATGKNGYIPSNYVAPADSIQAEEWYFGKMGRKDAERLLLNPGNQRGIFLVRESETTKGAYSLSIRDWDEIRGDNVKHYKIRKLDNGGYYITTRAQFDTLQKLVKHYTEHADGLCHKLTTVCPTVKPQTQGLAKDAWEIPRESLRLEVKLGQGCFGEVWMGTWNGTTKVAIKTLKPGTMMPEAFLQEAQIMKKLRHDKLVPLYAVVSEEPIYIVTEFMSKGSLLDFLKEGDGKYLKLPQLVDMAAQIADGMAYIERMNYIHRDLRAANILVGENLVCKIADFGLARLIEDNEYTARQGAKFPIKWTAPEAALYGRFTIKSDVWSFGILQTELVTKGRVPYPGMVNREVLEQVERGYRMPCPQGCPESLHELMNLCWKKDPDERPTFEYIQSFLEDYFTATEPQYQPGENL

# Block 1
# SMILES: COc1ccc2c(c1)c(C1=C(c3c[nH]c4ccccc34)C(=O)NC1=O)cn2CCCN(C)C
# Read-out: enzyme activity
# Mode: inhibitor
# Tested at: 0.5 µM
# Reference: control
target,remaining activity [%]
"Serine/threonine-protein kinase Nek1 (NEK1, Homo sapiens, UniProt Q96PY6)",94.7
"Tyrosine-protein kinase Mer (MERTK, Homo sapiens, UniProt Q12866)",84
"MAP kinase-activated protein kinase 2 (MAPKAPK2, Homo sapiens, UniProt P49137)",99.7
"Casein kinase I isoform gamma-3 (CSNK1G3, Homo sapiens, UniProt Q9Y6M4)",77.8
"Tyrosine-protein kinase JAK3 (JAK3, Homo sapiens, UniProt P52333)",138
"Dual specificity mitogen-activated protein kinase kinase 2 (MAP2K2, Homo sapiens, UniProt P36507)",103
"Angiopoietin-1 receptor (TEK, Homo sapiens, UniProt Q02763)",102
"Activin receptor type-1B (ACVR1B, Homo sapiens, UniProt P36896)",111
"Fibroblast growth factor receptor 1 (FGFR1, Homo sapiens, UniProt P11362)",59
"Ephrin type-A receptor 3 (EPHA3, Homo sapiens, UniProt P29320)",94.1
"Macrophage-stimulating protein receptor (MST1R, Homo sapiens, UniProt Q04912)",91.3
"Serine/threonine-protein kinase TAO2 (TAOK2, Homo sapiens, UniProt Q9UL54)",80.8
"Tyrosine-protein kinase FRK (FRK, Homo sapiens, UniProt P42685)",91.3
"Mitogen-activated protein kinase kinase kinase 14 (MAP3K14, Homo sapiens, UniProt Q99558)",79.2

# Block 2
# Organism: Sarcocystis neurona
# Read-out: parasite growth
# Tested at: concentration not given
SMILES,inhibition
CC1=C(C(=O)O)N2C(=O)[C@@H](NC(=O)[C@H](N)c3ccccc3)[C@H]2SC1.O,-6.9%
O=C(N[C@H](CO)[C@H](O)c1ccc([N+](=O)[O-])cc1)C(Cl)Cl,1.8%
CN1[C@@H](CC(=O)c2ccccc2)CCC[C@H]1C[C@H](O)c1ccccc1.Cl,-12.9%
CN(CCOc1ccc(CC2SC(=O)NC2=O)cc1)c1ccccn1.Cl (centres unmarked),-5.2%
CC(CCCCC(=O)Nc1ccc(C(F)(F)F)cc1)NCCc1cnc[nH]1 (centres unmarked),-6.6%
Cl.Cn1c(NCCN(CCO)CCCc2ccc([N+](=O)[O-])cc2)cc(=O)n(C)c1=O,-14%
COc1ccc(C(=O)NCc2ccc(OCCN(C)C)cc2)cc1OC.Cl,-18.6%
CN1C(C(=O)Nc2ccccn2)=C(O)c2ccccc2S1(=O)=O.O,-11.5%
C[C@H](N[C@@H](CCc1ccccc1)C(=O)O)C(=O)N1CCC[C@H]1C(=O)O,-0.246%

# Block 3
# Host: human
# Sample: microsomes or S9
# Tested at: 2 µM
# Time: 0.5 h
SMILES,remaining compound
Cn1cc(NC(=O)N2CCCC(S(=O)(=O)N3CCc4ccccc43)C2)cn1 (centres unmarked),91.4%
C[C@H](Nc1ncnc2[nH]cnc12)c1cc2cccc(Cl)c2c(=O)n1-c1ccccc1,89.9%
O=C1NN=C(c2ccc(F)cc2)Cn2c1cc1ccccc12,10.8%
CCc1nc(NCCc2ccncc2)c2c3c(sc2n1)CCCC3,0.0157%
CCOC(=O)C(=Cc1cn(-c2ccccc2)nc1-c1ccc(OC)c(OC)c1)C(=O)OCC,0.0266%
CC(C)(C)OC(=O)NC1CCN(c2nccn3c(=O)[nH]nc23)CC1,45.3%
COc1ccccc1N/C(N)=N/Cc1ccccc1OCCN(C)C,98.6%
COCCNC(=O)c1ccc(-n2ncc(C(=O)OC)c2N)cc1,93.6%
CS(=O)(=O)c1cccc(Br)c1N1CCCC2(CNC(=O)O2)C1 (centres unmarked),85.3%
CN(C)c1nc(Cl)nc(Oc2ccc(=O)n(C)n2)n1,87.1%

# Block 4
# Structure (SMILES): O=C(NS(=O)(=O)c1ccc(NCC2CCOCC2)c([N+](=O)[O-])c1)c1ccc(N2CCN(Cc3ccc(C(F)(F)F)cc3-c3ccc(Cl)cc3)CC2)cc1Oc1cnc2[nH]ccc2c1
# Read-out: cell-free assay
# Method: competition with immobilised ligand
# Tested at: 1 µM
target,remaining binding [%]
"Mitogen-activated protein kinase kinase kinase kinase 5 (MAP4K5, Homo sapiens, UniProt Q9Y4K4)",98
"Serine/threonine-protein kinase PLK2 (PLK2, Homo sapiens, UniProt Q9NYY3)",100
"Tyrosine-protein kinase Yes (YES1, Homo sapiens, UniProt P07947)",100
"Receptor tyrosine-protein kinase erbB-3 (ERBB3, Homo sapiens, UniProt P21860)",100
"Cyclin-dependent kinase-like 1 (CDKL1, Homo sapiens, UniProt Q00532)",100
"Protein kinase C delta type (PRKCD, Homo sapiens, UniProt Q05655)",100
"Serine/threonine-protein kinase 3 (STK3, Homo sapiens, UniProt Q13188)",100
"Phosphatidylinositol 4,5-bisphosphate 3-kinase catalytic subunit delta isoform (PIK3CD, Homo sapiens, UniProt O00329)",60
"Hepatocyte growth factor receptor (MET, Homo sapiens, UniProt P08581)",93
"Dual specificity mitogen-activated protein kinase kinase 7 (MAP2K7, Homo sapiens, UniProt O14733)",100
"Phosphatidylinositol 4-phosphate 3-kinase C2 domain-containing subunit beta (PIK3C2B, Homo sapiens, UniProt O00750)",83

# Repeated from above (block 4):
target,remaining binding [%]
"Tyrosine-protein kinase Yes (YES1, Homo sapiens, UniProt P07947)",100
"Phosphatidylinositol 4-phosphate 3-kinase C2 domain-containing subunit beta (PIK3C2B, Homo sapiens, UniProt O00750)",83
"Receptor tyrosine-protein kinase erbB-3 (ERBB3, Homo sapiens, UniProt P21860)",100
"Serine/threonine-protein kinase PLK2 (PLK2, Homo sapiens, UniProt Q9NYY3)",100
"Dual specificity mitogen-activated protein kinase kinase 7 (MAP2K7, Homo sapiens, UniProt O14733)",100
